Published values from different studies.
Numbers after ± are the reported error.
INPPL1 phosphatase-C2 domains: Phosphatidylinositol 3,4,5-trisphosphate 5-phosphatase 2, phosphatase-C2 domains (INPPL1, Homo sapiens, UniProt O15357)
Chain of UniProt O15357 (whole entry, looked up): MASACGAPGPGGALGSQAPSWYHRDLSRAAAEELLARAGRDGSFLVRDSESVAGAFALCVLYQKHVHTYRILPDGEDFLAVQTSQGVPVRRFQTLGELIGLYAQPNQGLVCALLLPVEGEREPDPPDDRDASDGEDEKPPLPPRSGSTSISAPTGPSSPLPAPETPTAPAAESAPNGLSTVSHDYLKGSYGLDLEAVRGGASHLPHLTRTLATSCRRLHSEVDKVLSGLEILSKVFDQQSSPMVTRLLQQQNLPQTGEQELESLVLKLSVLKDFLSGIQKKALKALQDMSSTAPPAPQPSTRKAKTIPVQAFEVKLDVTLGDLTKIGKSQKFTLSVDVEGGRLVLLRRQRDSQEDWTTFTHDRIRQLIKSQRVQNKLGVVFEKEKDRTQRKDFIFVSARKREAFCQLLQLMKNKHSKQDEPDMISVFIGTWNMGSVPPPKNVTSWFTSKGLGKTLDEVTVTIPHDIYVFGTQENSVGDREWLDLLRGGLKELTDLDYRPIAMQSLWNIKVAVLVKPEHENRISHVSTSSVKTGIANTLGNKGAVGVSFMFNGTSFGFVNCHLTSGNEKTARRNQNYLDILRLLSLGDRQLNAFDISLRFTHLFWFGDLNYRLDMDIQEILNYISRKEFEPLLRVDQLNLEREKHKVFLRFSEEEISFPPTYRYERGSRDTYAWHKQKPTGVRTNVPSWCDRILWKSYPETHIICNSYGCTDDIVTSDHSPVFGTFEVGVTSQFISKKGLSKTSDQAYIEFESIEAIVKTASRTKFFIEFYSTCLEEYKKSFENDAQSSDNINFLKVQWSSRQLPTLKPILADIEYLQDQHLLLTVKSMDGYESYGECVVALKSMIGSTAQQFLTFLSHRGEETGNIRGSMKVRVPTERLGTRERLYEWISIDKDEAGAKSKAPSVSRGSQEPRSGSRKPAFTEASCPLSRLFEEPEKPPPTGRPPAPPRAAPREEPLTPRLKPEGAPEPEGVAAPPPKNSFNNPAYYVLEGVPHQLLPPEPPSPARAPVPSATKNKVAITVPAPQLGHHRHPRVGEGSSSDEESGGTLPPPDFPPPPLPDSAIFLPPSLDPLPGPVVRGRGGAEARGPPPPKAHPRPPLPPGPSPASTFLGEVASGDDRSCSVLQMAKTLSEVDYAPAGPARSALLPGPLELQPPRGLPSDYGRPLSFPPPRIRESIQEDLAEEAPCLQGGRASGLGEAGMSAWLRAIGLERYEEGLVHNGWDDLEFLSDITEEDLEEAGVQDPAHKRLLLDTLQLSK
CBL TKB domain: E3 ubiquitin-protein ligase CBL, TKB domain (CBL, Homo sapiens, UniProt P22681)
CBL SH2 domain: E3 ubiquitin-protein ligase CBL, SH2 domain (CBL, Homo sapiens, UniProt P22681)
Chain of UniProt P55201 (whole entry, unmodified, looked up): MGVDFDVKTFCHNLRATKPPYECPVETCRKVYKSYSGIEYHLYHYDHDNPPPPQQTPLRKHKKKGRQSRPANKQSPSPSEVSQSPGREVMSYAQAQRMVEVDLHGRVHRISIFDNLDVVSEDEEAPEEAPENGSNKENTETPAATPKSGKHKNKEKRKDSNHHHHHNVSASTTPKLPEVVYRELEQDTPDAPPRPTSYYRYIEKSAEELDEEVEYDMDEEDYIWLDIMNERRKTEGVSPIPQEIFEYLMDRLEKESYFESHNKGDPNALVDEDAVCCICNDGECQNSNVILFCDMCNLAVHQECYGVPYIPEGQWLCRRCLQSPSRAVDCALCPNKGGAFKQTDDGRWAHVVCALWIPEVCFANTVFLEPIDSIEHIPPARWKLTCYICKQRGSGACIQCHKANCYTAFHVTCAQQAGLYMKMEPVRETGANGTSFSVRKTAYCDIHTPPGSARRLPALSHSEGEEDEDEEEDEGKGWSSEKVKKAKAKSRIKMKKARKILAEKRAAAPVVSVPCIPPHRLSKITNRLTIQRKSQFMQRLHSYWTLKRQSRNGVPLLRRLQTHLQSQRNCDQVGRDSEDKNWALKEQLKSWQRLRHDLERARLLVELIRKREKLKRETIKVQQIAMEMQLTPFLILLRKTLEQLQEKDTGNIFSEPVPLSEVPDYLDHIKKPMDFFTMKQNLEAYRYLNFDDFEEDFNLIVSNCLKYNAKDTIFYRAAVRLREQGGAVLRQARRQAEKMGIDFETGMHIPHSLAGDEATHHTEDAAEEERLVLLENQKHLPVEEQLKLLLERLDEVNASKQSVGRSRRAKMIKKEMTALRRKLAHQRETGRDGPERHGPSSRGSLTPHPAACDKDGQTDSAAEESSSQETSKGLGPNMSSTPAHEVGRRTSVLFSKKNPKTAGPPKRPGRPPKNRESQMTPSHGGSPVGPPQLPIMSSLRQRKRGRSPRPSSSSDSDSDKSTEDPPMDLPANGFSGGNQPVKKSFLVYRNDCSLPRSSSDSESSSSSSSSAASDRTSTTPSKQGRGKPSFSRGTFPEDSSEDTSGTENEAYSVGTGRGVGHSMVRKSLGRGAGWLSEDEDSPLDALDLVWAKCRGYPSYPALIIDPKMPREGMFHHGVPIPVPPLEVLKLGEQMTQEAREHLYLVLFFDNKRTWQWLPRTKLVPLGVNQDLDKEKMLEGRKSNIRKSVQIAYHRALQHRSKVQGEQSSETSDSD
Chain of UniProt P28887 (whole entry, looked up): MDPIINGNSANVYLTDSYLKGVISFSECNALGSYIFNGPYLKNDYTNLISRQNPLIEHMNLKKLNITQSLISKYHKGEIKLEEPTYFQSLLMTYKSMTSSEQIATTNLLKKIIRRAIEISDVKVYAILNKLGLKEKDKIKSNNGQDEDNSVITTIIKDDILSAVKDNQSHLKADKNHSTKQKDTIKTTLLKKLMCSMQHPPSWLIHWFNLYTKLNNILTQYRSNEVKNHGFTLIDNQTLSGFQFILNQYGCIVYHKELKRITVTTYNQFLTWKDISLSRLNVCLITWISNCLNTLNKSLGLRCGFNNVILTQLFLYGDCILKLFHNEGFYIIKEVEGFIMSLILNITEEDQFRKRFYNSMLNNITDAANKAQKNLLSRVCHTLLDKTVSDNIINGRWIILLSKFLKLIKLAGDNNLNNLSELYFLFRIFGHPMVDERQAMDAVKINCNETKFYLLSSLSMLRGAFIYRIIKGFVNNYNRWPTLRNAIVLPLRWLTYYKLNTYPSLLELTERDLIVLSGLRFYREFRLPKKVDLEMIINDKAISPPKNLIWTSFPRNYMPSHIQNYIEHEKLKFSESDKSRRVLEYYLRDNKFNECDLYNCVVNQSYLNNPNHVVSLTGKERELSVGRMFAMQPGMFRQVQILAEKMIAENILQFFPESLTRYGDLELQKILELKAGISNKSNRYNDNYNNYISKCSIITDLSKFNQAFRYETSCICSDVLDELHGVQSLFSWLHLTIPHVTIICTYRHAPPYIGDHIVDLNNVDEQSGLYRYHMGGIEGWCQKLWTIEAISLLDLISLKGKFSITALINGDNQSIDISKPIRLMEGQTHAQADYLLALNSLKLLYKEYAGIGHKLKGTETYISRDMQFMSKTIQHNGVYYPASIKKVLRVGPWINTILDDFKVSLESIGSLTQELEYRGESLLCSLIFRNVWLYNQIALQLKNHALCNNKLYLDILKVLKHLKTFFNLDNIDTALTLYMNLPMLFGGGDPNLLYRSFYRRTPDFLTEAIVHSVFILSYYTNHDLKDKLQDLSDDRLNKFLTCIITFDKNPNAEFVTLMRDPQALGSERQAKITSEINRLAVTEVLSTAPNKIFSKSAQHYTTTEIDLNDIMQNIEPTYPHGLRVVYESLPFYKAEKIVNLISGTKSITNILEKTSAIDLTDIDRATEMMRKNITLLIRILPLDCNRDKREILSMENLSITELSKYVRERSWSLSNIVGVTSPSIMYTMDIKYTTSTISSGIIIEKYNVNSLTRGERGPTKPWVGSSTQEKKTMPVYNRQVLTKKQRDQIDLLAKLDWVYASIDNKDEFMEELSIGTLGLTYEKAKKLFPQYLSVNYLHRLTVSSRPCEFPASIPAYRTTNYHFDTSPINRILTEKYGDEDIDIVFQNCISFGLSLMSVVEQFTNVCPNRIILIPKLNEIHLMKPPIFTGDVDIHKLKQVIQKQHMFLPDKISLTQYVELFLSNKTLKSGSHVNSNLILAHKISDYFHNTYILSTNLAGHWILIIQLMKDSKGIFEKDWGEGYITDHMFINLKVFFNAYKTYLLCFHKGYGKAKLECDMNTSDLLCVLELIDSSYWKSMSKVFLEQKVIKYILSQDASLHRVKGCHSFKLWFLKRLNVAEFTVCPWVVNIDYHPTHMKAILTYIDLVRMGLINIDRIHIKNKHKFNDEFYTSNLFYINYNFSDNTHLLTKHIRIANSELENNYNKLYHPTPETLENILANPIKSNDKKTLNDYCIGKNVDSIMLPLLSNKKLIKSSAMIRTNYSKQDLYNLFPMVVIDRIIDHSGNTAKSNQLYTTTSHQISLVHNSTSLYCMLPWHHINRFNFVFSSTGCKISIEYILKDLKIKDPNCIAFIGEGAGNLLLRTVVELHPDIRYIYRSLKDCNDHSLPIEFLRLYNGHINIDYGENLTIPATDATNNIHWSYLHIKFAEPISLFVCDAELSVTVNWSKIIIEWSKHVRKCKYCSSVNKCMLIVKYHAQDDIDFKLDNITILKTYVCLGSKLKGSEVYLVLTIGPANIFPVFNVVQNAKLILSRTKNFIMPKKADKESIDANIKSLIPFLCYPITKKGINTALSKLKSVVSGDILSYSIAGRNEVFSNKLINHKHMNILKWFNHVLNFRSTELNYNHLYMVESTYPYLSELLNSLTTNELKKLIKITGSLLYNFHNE

Structure (SMILES)	target	test	setting	endpoint	result
COCCCNC(=O)c1ccc(Cn2c(=O)c3ccccc3n(Cc3ccc(C(C)C)cc3)c2=O)cc1	RNA-directed RNA polymerase L (Human respiratory syncytial virus A, UniProt P28887)	–	–	EC50	1.2 µM
C[C@H](NC(=O)c1sccc1OCc1ccc(Cl)cc1)c1ccccc1	INPPL1 phosphatase-C2 domains	enzyme activity, inhibitor	–	IC50	> 900 µM
CC(=O)NCCCC[C@H](NC(=O)CNC(=O)[C@H](CCCNC(=N)N)NC(=O)CNC(=O)[C@@H](N)CO)C(=O)NCC(=O)NCC(=O)N[C@@H](CCCCN)C(=O)NCC(=O)N[C@@H](CC(C)C)C(=O)O	Peregrin (BRPF1, Homo sapiens, UniProt P55201, Y665F)	–	–	Kd	no binding
CC(=O)N[C@@H](Cc1ccc(OP(=O)(O)O)cc1)C(=O)N[C@H](C(=O)N1CCC[C@H]1C(=O)N1CCC[C@H]1C(=O)N1CCC[C@H]1C(N)=O)[C@@H](C)O	CBL TKB domain	–	–	Ki	5 ± 2.2 µM
O=C(NCc1c(F)cccc1F)c1sccc1OCc1ccc(Cl)cc1Cl	INPPL1 phosphatase-C2 domains	enzyme activity, inhibitor	–	IC50	> 900 µM
CSCC[C@H](NC(=O)[C@H](CCC(=O)O)NC(=O)c1ccc2c(c1)C(=O)OC21c2ccc(N(C)C)cc2Oc2cc(N(C)C)ccc21)C(=O)N[C@H](C(=O)N[C@@H](CO)C(=O)N[C@@H](CC(N)=O)C(=O)N[C@@H](CCC(=O)O)C(=O)N[C@@H](CO)C(=O)N[C@H](C(=O)N[C@@H](CC(=O)O)C(=O)N[C@@H](Cc1ccc(OP(=O)(O)O)cc1)C(=O)N[C@@H](CCCNC(=N)N)C(=O)N[C@@H](C)C(=O)N[C@H](C(=O)N[C@@H](Cc1ccccc1)C(=O)N1CCC[C@H]1C(=O)N[C@@H](CCC(=O)O)C(=O)N[C@@H](CC(=O)O)C(=O)N[C@@H](CC(=O)O)C(=O)O)[C@@H](C)O)C(C)C)C(C)C	CBL SH2 domain	–	human protein	Kd	0.131 µM
CC(=O)N[C@@H](Cc1ccc(OP(=O)(O)O)cc1)C(=O)N[C@H](C(=O)N1CCC[C@H]1C(=O)N[C@@H](C)C(=O)N1CCC[C@H]1C(N)=O)[C@@H](C)O	CBL TKB domain	–	–	Ki	18.1 ± 5.7 µM
CSCC[C@H](NC(=O)[C@H](CC(=O)O)NC(=O)[C@H](CCCNC(=N)N)NC(=O)[C@H](C)NC(=O)[C@H](CC(C)C)NC(=O)c1ccc2c(c1)C(=O)OC21c2ccc(N(C)C)cc2Oc2cc(N(C)C)ccc21)C(=O)N[C@@H](Cc1ccc(O)cc1)C(=O)N[C@@H](CC(=O)O)C(=O)N[C@@H](CCCCN)C(=O)N[C@@H](CCC(=O)O)C(=O)N[C@@H](Cc1ccc(OP(=O)(O)O)cc1)C(=O)N[C@@H](Cc1ccc(O)cc1)C(=O)N[C@@H](CO)C(=O)N[C@H](C(=O)N[C@@H](Cc1c[nH]cn1)C(=O)N[C@@H](CC(N)=O)C(=O)N[C@@H](CCCCN)C(=O)N[C@H](C(=O)N[C@@H](CC(=O)O)C(=O)O)[C@@H](C)O)C(C)C	CBL SH2 domain	–	human protein	Kd	0.931 µM
Cc1cc(N2CCNCC2)nc(C#N)n1	INPPL1 phosphatase-C2 domains	enzyme activity, inhibitor	–	IC50	1700 µM

A few entries again:
Structure (SMILES)	target	test	setting	endpoint	result
O=C(NCc1c(F)cccc1F)c1sccc1OCc1ccc(Cl)cc1Cl	INPPL1 phosphatase-C2 domains	enzyme activity, inhibitor	–	IC50	> 900 µM
